Experimental data gathered from unrelated publications.
Protocols differ between the studies behind these lines. ± marks the error that the study gave.
CNR2: Cannabinoid receptor 2 (CNR2, Homo sapiens, UniProt P34972)

SMILES	target or system	test	test system	setting	scale	measurement	value
CC(=O)NC(Cc1ccc(Br)c(Cl)c1)C(=O)N[C@@H](C)C(=O)N1CCC[C@H]1C(=O)N1CCC[C@H]1C(=O)N[C@@H](CCC(=O)O)C(=O)N[C@@H](Cc1c[nH]cn1)C(=O)N[C@@H](CO)C(=O)N[C@H](C(=O)N[C@@H](C)C(N)=O)[C@@H](C)OP(=O)(O)O (stereo partly drawn)	CSNK1G2 (Homo sapiens, UniProt P78368)	enzyme activity, inhibitor	–	10 µM	–	inhibition	3.73%
C[C@H](NC(=O)[C@H](CCC(N)=O)NC(=O)[C@H](CCCCN)NC(=O)[C@H](C)NC(=O)[C@@H]1CCCN1C(=O)[C@H](C)NC(=O)[C@H](CCCCN)NC(=O)[C@H](CCC(N)=O)NC(=O)[C@H](C)NC(=O)[C@H](CCCCN)NC(=O)[C@H](CCC(N)=O)NC(=O)[C@@H]1CCCN1C(=O)[C@H](CCC(N)=O)NC(=O)[C@H](CCCCN)NC(=O)[C@H](C)NC(=O)[C@H](CCC(N)=O)NC(=O)[C@H](CCCCN)NC(=O)[C@H](C)NC(=O)[C@@H]1CCCN1C(=O)[C@H](C)NC(=O)[C@H](CCCCN)NC(=O)[C@H](CCC(N)=O)NC(=O)[C@H](C)NC(=O)[C@H](CCCCN)NC(=O)[C@H](CO)NC(=O)[C@H](Cc1ccc(O)cc1)NC(=O)CNC(=O)CNC(=O)CN)C(=O)N[C@@H](CCCCN)C(=O)N[C@@H](CCC(N)=O)C(=O)O	–	binding, SPR two-state model	rVλ6Wil fibrils	300 nM	–	ka2	0.0122 s⁻¹
CCCCCn1cc(C(=O)c2ccc3ccccc3c2)c2ccccc21	CNR2 (Homo sapiens, UniProt P34972, L182I)	Gαi1 engagement, agonist, BRET	–	–	baseline: reference agonist at wild-type CB2	Emax	23.5 ± 3.9%
CC1=C(C)[C@@H](Oc2c(F)cc3c(C)cc(=O)oc3c2F)OC1=O	RMS3 (Lathyrus oleraceus, UniProt A0A109QYD3)	enzyme activity, substrate, pre-steady-state kinetics	–	–	–	kcat	0.136 ± 0.027 min⁻¹
NC(=NN=Cc1cccs1)[S][Ru+]([Cl])([P](c1ccccc1)(c1ccccc1)c1ccccc1)[P](c1ccccc1)(c1ccccc1)c1ccccc1.[Cl-]	Albumin (ALB, Bos taurus, UniProt P02769)	fluorescence quenching	–	together with: warfarin, site I marker	–	Stern-Volmer constant	1630 M⁻¹
CCOC(=O)C1C(OC(c2ccc(Cl)cc2)c2ccc(Cl)cc2)CC2CCC1N2C (single isomer, unassigned)	rat 5-HT2 receptors	binding, radioligand displacement	–	inactive if below 75% at 10000 nM, together with: [3H]ketanserin	–	Ki	inactive
CCCCCn1cc(C(=O)c2ccc3c(c2)CC(C)(C)C3)c2ccccc21	CNR2	β-arrestin 2 recruitment, agonist, BRET	–	–	baseline: CB2 over CB1	difference in Emax	~30%
NCCCC[C@H](NC(=O)CNC(=O)CNC(=O)[C@H](CCCCN)NC(=O)CNC(=O)CNC(=O)CNC(=O)[C@H](CCCCN)NC(=O)CNC(=O)CNC(=O)[C@H](CCCCN)NC(=O)CNC(=O)CNC(=O)CNC(=O)[C@H](CCCCN)NC(=O)CNC(=O)CNC(=O)[C@H](CCCCN)NC(=O)CNC(=O)CNC(=O)CNC(=O)[C@H](CCCCN)NC(=O)CNC(=O)CNC(=O)[C@H](CCCCN)NC(=O)[C@H](CO)NC(=O)[C@H](Cc1ccc(O)cc1)NC(=O)CNC(=O)CNC(=O)CN)C(=O)NCC(=O)O	–	binding, SPR two-state model	rVλ6Wil fibrils	300 nM	–	ka2	7.9e-06 s⁻¹
CCCCCc1cc(O)c2c(c1)OC(C)(C)C1CCC(C)=CC21 (single isomer, unassigned; (-))	UGT2B15 (Homo sapiens, UniProt P54855)	oxazepam glucuronidation	recombinant microsomes	10 or 100 µM, together with: oxazepam	–	inhibition	no inhibition
C[C@H](NC(=O)[C@H](CCC(N)=O)NC(=O)[C@H](C)NC(=O)[C@H](CCCCN)NC(=O)[C@H](CCC(N)=O)NC(=O)[C@H](C)NC(=O)[C@H](CCCCN)NC(=O)[C@H](CCC(N)=O)NC(=O)[C@H](C)NC(=O)[C@H](CCC(N)=O)NC(=O)[C@H](CCCCN)NC(=O)[C@H](C)NC(=O)[C@H](CCC(N)=O)NC(=O)[C@H](CCCCN)NC(=O)[C@H](C)NC(=O)[C@H](CCC(N)=O)NC(=O)[C@H](C)NC(=O)[C@H](CCCCN)NC(=O)[C@H](CCC(N)=O)NC(=O)[C@H](C)NC(=O)[C@H](CCCCN)NC(=O)[C@H](CO)NC(=O)[C@H](Cc1ccc(O)cc1)NC(=O)CNC(=O)CNC(=O)CN)C(=O)N[C@@H](CCCCN)C(=O)N[C@@H](CCC(N)=O)C(=O)N[C@@H](C)C(=O)N[C@@H](CCCCN)C(=O)N[C@@H](CCC(N)=O)C(=O)O	–	binding, SPR Langmuir fit	rVλ6Wil fibrils	300 nM, pH 7.4	–	association rate constant	120000 M⁻¹ s⁻¹
CCCCCn1cc(C(=O)c2cccc3c2CC(C)(C)C3)c2ccccc21	CNR2	β-arrestin recruitment, agonist, BRET	HEK-293T	–	–	Emax	91.8%
CC(C)[C@H](N)C(=O)N[C@@H](Cc1ccc(O)cc1)C(=O)N[C@@H](CCCCN)C(=O)N[C@H](C(=O)N[C@@H](CCCCN)C(=O)N[C@H](C(=O)N[C@@H](CCCCN)C(=O)N[C@H](C(=O)N[C@@H](CCCCN)C(=O)N[C@H](C(=O)N[C@@H](CCCCN)C(=O)N[C@H](C(=O)N[C@@H](CCCCN)C(=O)N[C@H](C(=O)N[C@@H](CCCCN)C(=O)N[C@H](C(=O)N[C@@H](CCCCN)C(=O)N[C@H](C(=O)O)[C@@H](C)O)C(C)C)[C@@H](C)O)C(C)C)[C@@H](C)O)C(C)C)[C@@H](C)O)C(C)C	–	binding, SPR Langmuir fit	rVλ6Wil fibrils	300 nM, pH 7.4	–	association rate constant	340000 M⁻¹ s⁻¹
CC(C)C[C@H](NC(=O)[C@H](Cc1ccccc1)NC(=O)CNC(=O)CNC(=O)[C@@H](N)Cc1ccc(OC(C(=O)O)c2ccccc2[N+](=O)[O-])cc1)C(=O)O (stereo partly drawn)	–	K+ current, agonist, photo-uncaging	rat locus coeruleus neurons	–	–	activation time constant	349 ± 26 ms
CSCC[C@H](NC(=O)[C@H](CCCNC(=N)N)NC(=O)[C@H](CCCNC(=N)N)NC(=O)[C@H](CCCCN)NC(=O)[C@H](C)NC(=O)[C@H](CCCNC(=N)N)NC(=O)CNC(=O)[C@@H](NC(=O)CN1CCN(CC(=O)O)CCN(CC(=O)O)CCN(CC(=O)O)CC1)[C@@H](C)O)C(=O)N[C@@H](CCC(N)=O)C(=O)N[C@@H](Cc1ccc(O)cc1)C(=O)N[C@@H](CC(N)=O)C(=O)N[C@@H](CCCNC(=N)N)C(=O)N[C@@H](CCCNC(=N)N)C(=O)O [gallium-68 labelled]	Staphylococcus aureus	–	–	concentration not given, 120 min, 37 °C	–	bacterial binding	48%
CCN(Cc1ccccc1)C(=O)CCc1nc(CN2CCN(C(=O)Cc3ccc(OC)c(OC)c3)CC2)no1	Sodium channel protein type 11 subunit alpha (Scn11a, Rattus norvegicus, UniProt O88457)	whole-cell patch clamp	rat DRG neurons	100 nM	–	V1/2 of inactivation	-92.5 ± 11.8 mV

Some of these lines once more:
SMILES	target or system	test	test system	setting	scale	measurement	value
NC(=NN=Cc1cccs1)[S][Ru+]([Cl])([P](c1ccccc1)(c1ccccc1)c1ccccc1)[P](c1ccccc1)(c1ccccc1)c1ccccc1.[Cl-]	Albumin (ALB, Bos taurus, UniProt P02769)	fluorescence quenching	–	together with: warfarin, site I marker	–	Stern-Volmer constant	1630 M⁻¹
CCCCCc1cc(O)c2c(c1)OC(C)(C)C1CCC(C)=CC21 (single isomer, unassigned; (-))	UGT2B15 (Homo sapiens, UniProt P54855)	oxazepam glucuronidation	recombinant microsomes	10 or 100 µM, together with: oxazepam	–	inhibition	no inhibition
